Published values of several laboratories.
Each line is one published result; not all experiments were run side by side. Values joined by “and” are separate records of one study, mostly repeats; a detail may differ. ± marks the error that the study gave.
Genome polyprotein NS3 helicase domain: Genome polyprotein, NS3 helicase domain (Hepatitis C virus genotype 1b, UniProt Q9WMX2)
WD repeat-containing protein 91 WD40 domain, residues 392–747: WD repeat-containing protein 91, WD40 domain, residues 392–747 (Homo sapiens, UniProt A4D1P6)
Sequence of UniProt A4D1P6 (whole entry, looked up): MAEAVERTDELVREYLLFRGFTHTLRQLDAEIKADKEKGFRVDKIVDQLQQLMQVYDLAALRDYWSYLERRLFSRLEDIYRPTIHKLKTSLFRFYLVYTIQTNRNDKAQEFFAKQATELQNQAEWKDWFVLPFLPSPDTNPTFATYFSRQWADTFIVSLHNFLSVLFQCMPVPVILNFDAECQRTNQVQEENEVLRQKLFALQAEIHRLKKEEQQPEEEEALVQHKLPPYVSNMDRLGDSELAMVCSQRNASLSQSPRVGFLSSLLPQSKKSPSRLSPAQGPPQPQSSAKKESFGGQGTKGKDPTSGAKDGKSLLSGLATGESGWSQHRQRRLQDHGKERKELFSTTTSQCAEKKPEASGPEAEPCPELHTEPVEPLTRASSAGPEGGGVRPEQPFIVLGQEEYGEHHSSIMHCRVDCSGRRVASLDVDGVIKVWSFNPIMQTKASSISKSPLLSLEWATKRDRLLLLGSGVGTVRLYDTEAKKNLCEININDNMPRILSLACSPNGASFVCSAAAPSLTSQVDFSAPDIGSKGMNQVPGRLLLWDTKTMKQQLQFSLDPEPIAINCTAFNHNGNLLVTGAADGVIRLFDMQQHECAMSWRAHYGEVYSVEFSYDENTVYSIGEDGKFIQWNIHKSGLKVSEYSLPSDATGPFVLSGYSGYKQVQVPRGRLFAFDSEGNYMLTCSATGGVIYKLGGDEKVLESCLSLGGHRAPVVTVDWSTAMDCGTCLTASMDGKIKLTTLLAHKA
Glutamate receptor 2: Glutamate receptor 2 (Homo sapiens, UniProt P42262)
T1: RNA aptamer; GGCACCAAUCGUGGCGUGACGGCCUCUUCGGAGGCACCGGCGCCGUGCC
Sequence of UniProt Q16774 (whole entry, unmodified, looked up): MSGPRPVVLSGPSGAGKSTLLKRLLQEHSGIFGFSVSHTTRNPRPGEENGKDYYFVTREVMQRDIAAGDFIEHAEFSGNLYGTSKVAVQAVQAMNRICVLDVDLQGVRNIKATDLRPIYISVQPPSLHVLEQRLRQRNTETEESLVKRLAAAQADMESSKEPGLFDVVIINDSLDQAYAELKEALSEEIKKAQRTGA
Sequence of UniProt Q92570 (whole entry, looked up): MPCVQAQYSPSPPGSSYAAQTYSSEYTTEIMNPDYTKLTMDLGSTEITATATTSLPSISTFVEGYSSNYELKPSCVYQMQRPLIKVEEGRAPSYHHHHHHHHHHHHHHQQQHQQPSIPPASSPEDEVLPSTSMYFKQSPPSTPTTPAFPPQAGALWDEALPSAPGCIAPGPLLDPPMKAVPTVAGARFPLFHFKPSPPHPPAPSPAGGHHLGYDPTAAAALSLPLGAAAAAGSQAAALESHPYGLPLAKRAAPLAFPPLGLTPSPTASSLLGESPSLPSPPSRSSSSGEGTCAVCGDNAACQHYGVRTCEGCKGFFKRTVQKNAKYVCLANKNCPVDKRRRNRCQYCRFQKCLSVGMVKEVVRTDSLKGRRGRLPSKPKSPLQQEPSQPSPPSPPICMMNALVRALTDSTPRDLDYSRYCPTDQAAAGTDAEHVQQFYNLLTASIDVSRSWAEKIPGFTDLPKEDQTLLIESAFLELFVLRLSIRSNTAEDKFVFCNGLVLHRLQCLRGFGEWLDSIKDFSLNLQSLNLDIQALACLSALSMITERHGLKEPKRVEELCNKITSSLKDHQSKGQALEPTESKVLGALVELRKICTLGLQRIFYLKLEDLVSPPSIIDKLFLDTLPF
Sequence of UniProt P51449 (whole entry, looked up): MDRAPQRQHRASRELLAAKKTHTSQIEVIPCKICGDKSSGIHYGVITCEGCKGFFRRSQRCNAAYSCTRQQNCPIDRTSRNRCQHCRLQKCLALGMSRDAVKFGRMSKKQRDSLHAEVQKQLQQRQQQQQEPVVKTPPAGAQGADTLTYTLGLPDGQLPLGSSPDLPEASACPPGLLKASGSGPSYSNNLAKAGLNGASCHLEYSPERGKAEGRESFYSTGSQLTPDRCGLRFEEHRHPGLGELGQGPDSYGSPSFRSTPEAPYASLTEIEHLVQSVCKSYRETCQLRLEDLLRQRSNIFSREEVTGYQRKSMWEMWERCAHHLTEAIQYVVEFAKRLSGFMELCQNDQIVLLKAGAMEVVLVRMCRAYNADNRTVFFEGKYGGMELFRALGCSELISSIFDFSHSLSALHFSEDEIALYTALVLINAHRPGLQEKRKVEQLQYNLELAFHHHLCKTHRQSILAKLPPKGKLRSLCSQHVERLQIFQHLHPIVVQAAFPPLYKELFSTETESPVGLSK

CN1CCN(c2cc(-c3ccncc3)c(-c3ccc4ccccc4c3)nn2)CC1  activation (EDNRB (Homo sapiens, UniProt P24530); agonist, FLIPR; 12.5 µM): -0.1%
CCN(CC)CCOCCOC(=O)C1(c2ccccc2)CCCC1  inhibition (Genome polyprotein NS3 helicase domain; DNA binding, inhibitor; hepatitis C virus; 100 µM, together with: Cy5-dT15 DNA): 0%
NCCCC(=O)O  normalised MST signal (SLC6A6 (Homo sapiens, UniProt P31641, Y138A); binding, microscale thermophoresis; 1 mM, room temperature, together with: 50 nM labelled protein; higher = more binding): 0.0225
Cc1ccc(C(O)c2cn(-c3ccc(C(=O)N4CCC(C#N)CC4)cc3)nn2)cc1 (centres unmarked)  SPR response (WD repeat-containing protein 91 WD40 domain, residues 392–747; binding, SPR single-concentration screen; 45 µM): -4.1 RU and -0.3 RU
Cc1ccccc1N1C(=O)c2cc(S(N)(=O)=O)c(Cl)cc2NC1C (centres unmarked)  inhibition (Genome polyprotein NS3 helicase domain; DNA binding, inhibitor; hepatitis C virus; 100 µM, together with: Cy5-dT15 DNA): 1%
Cc1[nH]c(C)c(S(=O)(=O)Nc2ccc(C(F)(F)F)c(Cl)c2)c1C(=O)N1CCC(F)(F)C1  cooperativity factor α (DRD3 (Homo sapiens, UniProt P35462); allosteric modulator, ternary complex model; together with: dopamine, [3H]methylspiperone): 4.6
O=c1cc(-c2ccc(O)cc2)oc2cccc(O)c12  selectivity ratio (Estrogen receptor (ESR1, Homo sapiens, UniProt P03372); array formation; PRL-HeLa; relative to: EC50 ERβ over EC50 ERα): 0.5
O=C1NC(=O)C(c2ccccc2)(c2ccccc2)N1  potentiation (Glutamate receptor 2; ion current, positive allosteric modulator, SyncroPatch patch clamp; HEK293; 30 µM): 99%
CCN(CC)CCOC(=O)c1ccc(N)cc1  inhibition (Genome polyprotein NS3 helicase domain; DNA binding, inhibitor; hepatitis C virus; 100 µM, together with: Cy5-dT15 DNA): 0%
Cc1ccc(-c2cc(C(=O)N3CCN(c4cccc(C(F)(F)F)c4)CC3)c3ccccc3n2)o1  activity class (RORC (Homo sapiens, UniProt P51449); cell-based; concentration not given): active
Nc1ncnc2c1ncn2[C@@H]1O[C@H](CO)[C@@H](O)[C@H]1O  Km (Chimera-2 enzyme (Aplysia californica); deamination, substrate, spectrophotometric; Tris-HCl buffer with NaCl): 39 ± 5 µM
Nc1nc2c(ncn2[C@@H]2O[C@H](COP(=O)(O)O)[C@@H](O)[C@H]2O)c(=O)[nH]1  reaction rate (GUK1 (Homo sapiens, UniProt Q16774, Y53A); enzyme activity, NADH-coupled; 250 µM): 4.54 s⁻¹ and 2 s⁻¹ and 2.93 s⁻¹
CN(CCO)c1ccc(/C=C(\C#N)c2ccc(C#N)cc2)cc1  Kd (T1, RNA aptamer; fluorescence titration, Hill fit; apparent): 0.122 µM
O=C(O)[C@@H]1C[C@@H](O)CN1  product formation (N-alpha-acetyltransferase 80 (NAA80, Homo sapiens, UniProt Q93015); substrate, DTNB; 2 mM, 30 min, 37 °C, together with: acetyl-CoA 500 µM): 3.02 µM
O=C1O/C(=C/Br)CCC1c1cccc2ccccc12 (centres unmarked)  inhibition (Genome polyprotein NS3 helicase domain; DNA binding, inhibitor; hepatitis C virus; 100 µM, together with: Cy5-dT15 DNA): 0%
COCCC(=O)N1CCC(Oc2ccccc2)C1 (centres unmarked)  fold enrichment (WD repeat-containing protein 91 (Homo sapiens, UniProt A4D1P6); binding, affinity selection mass spectrometry; relative to: other proteins in batch): 0.946
CC(=O)c1cccc(OCc2cn(-c3ccc(C(=O)N4CCC(C#N)CC4)cc3)nn2)c1  SPR response (WD repeat-containing protein 91 WD40 domain, residues 392–747; binding, SPR single-concentration screen; 45 µM): 26.2 RU and 19.9 RU
COc1cccc2c(Nc3ccc4[nH]c(C(=O)N/N=C/c5ccc(SC)cc5)cc4c3)cc(C)nc12  activation (Nuclear receptor subfamily 4 group A member 3, ligand-binding domain (Homo sapiens, UniProt Q92570); reporter gene, Gal4 hybrid reporter; 3 µM; relative to: vehicle): 0.71 fold
CC[C@@H]1[C@H](F)C(=O)N[C@@H]1COc1nccc2cc(C(N)=O)c(OC)cc12  inhibition (WEE1 (Homo sapiens, UniProt P30291); ATP-site probe binding, ActivX profiling; THP-1 cell lysate; 0.04 mM, Lys2 site): -1.5%
CCC1(c2ccccc2)C(=O)NCNC1=O  inhibition (Genome polyprotein NS3 helicase domain; DNA binding, inhibitor; hepatitis C virus; 100 µM, together with: Cy5-dT15 DNA): 1%
CC(C)(O)c1ccc(-c2nc3cc(NC(=O)c4cnc(Oc5ccccc5)nc4)ccc3c(=O)[nH]2)cc1  selectivity ratio (TNKS2 (Homo sapiens, UniProt Q9H2K2); PARylation, inhibitor, biochemical PARylation; relative to: TNKS1 IC50 over TNKS2 IC50): 49.2
CC[C@H](C)[C@H](NC(=O)[C@H](CCSC)NC(=O)[C@H](CCSC)NC(=O)[C@H](C)NC(=O)[C@H](C)NC(=O)[C@H](Cc1ccc(O)cc1)NC(=O)[C@@H](NC(=O)[C@H](CCCCN)NC(=O)CNC(=O)[C@@H](NC(=O)[C@@H](NC(=O)[C@H](CCSC)NC(=O)[C@H](Cc1c[nH]cn1)NC(=O)CN)[C@@H](C)O)C(C)C)[C@@H](C)CC)C(=O)N[C@@H](C)C(=O)N[C@@H](CCC(=O)O)C(=O)N[C@@H](Cc1ccc(O)cc1)C(=O)N[C@@H](Cc1ccc(O)cc1)C(=O)N[C@@H](CCCNC(=N)N)C(=O)N[C@@H](CCC(N)=O)C(=O)N[C@@H](CO)C(=O)N[C@@H](CCCCN)C(=O)N[C@@H](C)C(=O)N[C@@H](CCCCN)C(=O)N[C@@H](CCCCN)C(=O)N[C@@H](CC(C)C)C(=O)N[C@@H](CCC(N)=O)C(=O)N[C@@H](C)C(=O)N[C@@H](CCSC)C(=O)N[C@@H](CCCNC(=N)N)C(=O)O  ΔH (Calmodulin-1, Ca2+-bound N-lobe (CALM1, Homo sapiens, UniProt P0DP23); binding, isothermal titration calorimetry; pH 7.4, 15 °C, N-lobe, CaV2.1 IQ domain, together with: Ca2+): -3.34 ± 1.15 kcal/mol
CC1=CC(=O)c2ccccc2C1=O  kcat (ancestral FSP1; oxidoreductase activity, substrate; together with: co-substrate 100 µM fixed): 8.86 ± 0.45 s⁻¹
CC12CC3CC(C)(C1)CC(N)(C3)C2  potentiation (Glutamate receptor 2; ion current, positive allosteric modulator, SyncroPatch patch clamp; HEK293; 3 µM): 85%
C=CC(=O)N1CCC(COCC(=O)N2CCN(c3nc(-c4cnc(N)nc4C(F)F)nc(N4CCOC[C@@H]4C)n3)CC2)CC1  remaining binding (WNK1 (Homo sapiens, UniProt Q9H4A3); KINOMEscan; 1 µM; relative to: DMSO control): 100%
COc1cc(/C=C/c2cc(/C=C/c3ccc(O)c(OC)c3)n(-c3cccc([N+](=O)[O-])c3)n2)ccc1O  binding stoichiometry (haemin; isothermal titration calorimetry; concentration not given, pH 7.4, 37 °C): 0.55 ± 0.17
O=C(O)/C(=C/c1c(C(=O)O)[nH]c2cc(Cl)cc(Cl)c12)c1ccccc1  inhibition (Genome polyprotein NS3 helicase domain; DNA binding, inhibitor; hepatitis C virus; 100 µM, together with: Cy5-dT15 DNA): 0%
Cc1nc2sccn2c(=O)c1CCN1CCC(=C(c2ccc(F)cc2)c2ccc(F)cc2)CC1  IC90 (Diacylglycerol kinase alpha (Rattus norvegicus, UniProt P51556); kinase activity, inhibitor; HEK293T cell lysate; together with: diacylglycerol liposomes): 123 µM
COc1cc(NC(=O)c2cscn2)ccc1/N=N/c1ccccc1Cl  activation (GRM5 (Homo sapiens, UniProt P41594); positive allosteric modulator, IP accumulation; HEK293; 30 µM, in the dark, together with: low-dose orthosteric agonist): -11.5%

For quick reference, copied from above:
COc1cc(/C=C/c2cc(/C=C/c3ccc(O)c(OC)c3)n(-c3cccc([N+](=O)[O-])c3)n2)ccc1O  binding stoichiometry (haemin; isothermal titration calorimetry; concentration not given, pH 7.4, 37 °C): 0.55 ± 0.17
O=C(O)/C(=C/c1c(C(=O)O)[nH]c2cc(Cl)cc(Cl)c12)c1ccccc1  inhibition (Genome polyprotein NS3 helicase domain; DNA binding, inhibitor; hepatitis C virus; 100 µM, together with: Cy5-dT15 DNA): 0%
Cc1nc2sccn2c(=O)c1CCN1CCC(=C(c2ccc(F)cc2)c2ccc(F)cc2)CC1  IC90 (Diacylglycerol kinase alpha (Rattus norvegicus, UniProt P51556); kinase activity, inhibitor; HEK293T cell lysate; together with: diacylglycerol liposomes): 123 µM
